Measured values of several laboratories.
Each numbered part is a random draw from the data of one study; scales do not carry over between parts. Changes are numbered by the printed parent chain.

Series 1
Target: RNA binding protein fox-1 homolog 2, RRM domain, GST-SBP tag (RBFOX2, Homo sapiens, UniProt O43251-10, residues 100-194)
Technique: RNA Bind-n-Seq
Molecule type: RNA
Sample: in vitro
Tested at: 365 nM
Setting: natural RNA segment, single round, ends assumed
Reference: no-protein control
Direction: higher = stronger binding
Residues (chain): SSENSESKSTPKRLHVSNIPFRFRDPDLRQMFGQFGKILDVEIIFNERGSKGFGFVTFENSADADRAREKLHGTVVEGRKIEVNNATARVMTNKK
Strand | RBNS enrichment (R)
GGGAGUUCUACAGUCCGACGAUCGGAGAGGGGAGGUGGCUCUCCAGUGUAAAACUUGAGGCAUUCACUAGAGGUGAAAACUUGUCAGAAUAUAUAAAAGCUUAGAUUGUAGCUGUUCUAAAAACGUAAGUACUUGGAAUUCUCGGGUGCCAA | 4.19
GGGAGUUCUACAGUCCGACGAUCAGCAGAGGUUUACAGUAAUUACCAACACCCUACACAAGUAAUGUGCCUAUGCCAGCUAAAAGUUUUUCCUGUUACUGCUGUGUUCUUCUUGCUAGAGAAAACAUAUAUUAUGGAAUUCUCGGGUGCCAA | 0.304
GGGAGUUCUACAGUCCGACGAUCCAACUCUUAACUUGCCUCCCUGUUAAUAAGUCUUUGAUUCUGAAGUGAACGUUAGCUUUUCUCAAACCCACACAAAUCCUUGAACAGGAAUUGUUUAUAGUGACCACACUUGGAAUUCUCGGGUGCCAA | 0.432
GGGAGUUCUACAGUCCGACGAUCUUCCUAUUAUACUCUGCUUUAUUGAAAAAGUAAAGCAUUUAAAAUUGUGCUCCAGAAAUUCAGAUGUUGUCUUGCGAUCUUUAAACAAUAAAAUGGAUGAUUUCCCCUUAUGGAAUUCUCGGGUGCCAA | 0.936
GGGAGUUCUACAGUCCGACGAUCCUGGAUGUAGAUAUUCUACAAGGAAGUAGAAACUUUUAAUACGAAGUAAUGAUUCCUCUAAAGGGAAAGGAAGUUUUAAGAGGGAGGCUUGGACAAUCUUAGUAUUUACAUGGAAUUCUCGGGUGCCAA | 1.06
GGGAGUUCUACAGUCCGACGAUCGUGUAUAAUUGGAGUAGAUAUUAAUUAAGUCACCUGUAUAAUGUUUUGUAAUUUUGCAAAACAUAUCUUGAGUUGUUUAAACAGUCAAAAUGUUUGAUAUUUUAUACCAGUGGAAUUCUCGGGUGCCAA | 0.532
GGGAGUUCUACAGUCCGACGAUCUGGGGUCUCCCCCAACAUUGUUGCUCUUUUAAACAAAUUGAAUUCUUUUUUCAAGGCUUAAAUUUUUUUUUUUCAUGACCUUCUGGAAGAAGCAAUAGUAGCAAUCUUAAUGGAAUUCUCGGGUGCCAA | 0.435
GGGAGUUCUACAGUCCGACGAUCGUAAGUCAGGAUUGGAGUAAGCUGGAAAAGUAUGUUUAGGCAAAUCUUGGAGAAAACCAACCAUAAACUUACAGCUCUAAAAUUCAGAAAGCCCUAAAAUUUCAAACACUUGGAAUUCUCGGGUGCCAA | 0.326

Series 2
Target: ABI1, truncated, D143A, DHFR fusion (Arabidopsis thaliana)
Technique: DHFR PCA, deep sequencing
Sample: yeast
Setting: methotrexate growth selection, single substitutions
Together with: (+)-ABA 200 µM
Reference: wild-type fitted maximum
Direction: higher = stronger binding
Starting sequence: PYL1, truncated, DHFR fusion (Arabidopsis thaliana); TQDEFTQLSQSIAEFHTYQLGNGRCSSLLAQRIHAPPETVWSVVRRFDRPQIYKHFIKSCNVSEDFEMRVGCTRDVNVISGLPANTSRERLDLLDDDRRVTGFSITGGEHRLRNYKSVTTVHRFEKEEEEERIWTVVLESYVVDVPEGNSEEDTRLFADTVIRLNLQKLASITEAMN; partner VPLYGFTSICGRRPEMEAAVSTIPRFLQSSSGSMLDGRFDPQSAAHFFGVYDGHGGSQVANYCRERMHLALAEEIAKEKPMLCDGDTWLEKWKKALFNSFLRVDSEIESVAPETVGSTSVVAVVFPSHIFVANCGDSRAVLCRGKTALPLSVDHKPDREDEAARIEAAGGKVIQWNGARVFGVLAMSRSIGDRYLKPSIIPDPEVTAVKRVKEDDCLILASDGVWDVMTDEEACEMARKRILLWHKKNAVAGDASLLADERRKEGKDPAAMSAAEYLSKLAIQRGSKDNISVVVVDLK
Substitution | relative binding score
T135I | 2.23%
T160M | 94%
T101Q | 53.5%
R99A | 70.7%
L156Y | 90.1%
I133C | 117%
E151Y | 88.5%
R46Y | 46.2%
T73P | 48.3%
G81M | 31.2%
E38L | 65.6%
G108F | 13.8%
D97Q | 99.2%
A13K | 97%
D144R | 57.2%

Series 3
Target: Sal-like protein 4, full length isoform A (SALL4, Homo sapiens, UniProt Q9UJQ4, residues 1-1053)
UniProt Q9UJQ4, sequence (whole entry, looked up): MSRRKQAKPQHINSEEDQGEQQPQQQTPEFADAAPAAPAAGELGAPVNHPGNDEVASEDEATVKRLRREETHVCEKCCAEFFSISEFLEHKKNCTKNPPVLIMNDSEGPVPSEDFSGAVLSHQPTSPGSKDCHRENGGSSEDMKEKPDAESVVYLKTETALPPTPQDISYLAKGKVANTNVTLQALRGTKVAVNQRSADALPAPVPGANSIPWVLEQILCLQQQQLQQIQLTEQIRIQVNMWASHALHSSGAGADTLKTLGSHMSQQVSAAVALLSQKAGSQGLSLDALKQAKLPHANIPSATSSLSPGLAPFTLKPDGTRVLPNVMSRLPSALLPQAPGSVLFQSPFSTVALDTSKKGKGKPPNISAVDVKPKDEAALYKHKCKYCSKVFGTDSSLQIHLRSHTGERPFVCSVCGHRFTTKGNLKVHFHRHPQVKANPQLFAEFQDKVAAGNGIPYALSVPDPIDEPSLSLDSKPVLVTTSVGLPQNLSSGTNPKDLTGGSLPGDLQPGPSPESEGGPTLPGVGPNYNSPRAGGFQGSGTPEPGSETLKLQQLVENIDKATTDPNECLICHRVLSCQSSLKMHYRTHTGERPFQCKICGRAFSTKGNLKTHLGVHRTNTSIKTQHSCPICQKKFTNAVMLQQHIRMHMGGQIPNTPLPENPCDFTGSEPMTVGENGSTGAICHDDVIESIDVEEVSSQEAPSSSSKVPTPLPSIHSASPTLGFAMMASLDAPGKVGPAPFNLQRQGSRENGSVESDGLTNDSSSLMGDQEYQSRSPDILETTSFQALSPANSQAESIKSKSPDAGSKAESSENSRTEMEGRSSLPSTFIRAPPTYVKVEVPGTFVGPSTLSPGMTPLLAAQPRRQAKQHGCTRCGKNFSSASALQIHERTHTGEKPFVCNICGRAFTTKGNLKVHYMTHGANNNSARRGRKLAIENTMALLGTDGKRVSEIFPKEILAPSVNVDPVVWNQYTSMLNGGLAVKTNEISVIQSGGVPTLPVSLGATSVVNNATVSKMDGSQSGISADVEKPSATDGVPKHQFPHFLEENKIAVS
Technique: universal PBM
Molecule type: double-stranded DNA, one strand shown
Sample: in vitro
Tested at: 600 nM
Setting: 8-mer, flanks averaged, mean of replicates
Direction: higher = stronger binding
Strand | E-score
ACGTCCTG | -0.239
CGTTTTCC | 0.0593
CGCTGTCC | -0.151
AGTGCCTA | 0.0177
AGGTTACC | -0.0388
ACTGTTGG | -0.0949
AAACAAGG | -0.058
TAGGGTCA | -0.171
GCCCGACC | -0.336
CGGATACC | -0.0839
ACTAACCA | 0.0531
CCGAAGAC | -0.213
ACGATTAT | 0.301
CAGGCTGA | -0.215
CCAAAGCA | -0.00358
AGTTCAGC | -0.211
GAAGCCCA | -0.193
GGGAGTTA | 0.0511
ATCACGTC | 0.00437
GGATTACC | -0.171
CCATGCAA | 0.13
AATCGGTA | 0.157
CTCTCGGC | -0.311
CCCATCCC | -0.225
TCCCGGCA | -0.288

Series 4
Target: CCNB2, cyclin fold, Cln2 fusion (human)
Technique: yeast growth competition, sequencing
Sample: yeast
Setting: strong parent motif
Reference: not given
Direction: higher = stronger binding
Starting sequence: MICAL3 docking peptide (human); LQLRRQLSFSEDS; partner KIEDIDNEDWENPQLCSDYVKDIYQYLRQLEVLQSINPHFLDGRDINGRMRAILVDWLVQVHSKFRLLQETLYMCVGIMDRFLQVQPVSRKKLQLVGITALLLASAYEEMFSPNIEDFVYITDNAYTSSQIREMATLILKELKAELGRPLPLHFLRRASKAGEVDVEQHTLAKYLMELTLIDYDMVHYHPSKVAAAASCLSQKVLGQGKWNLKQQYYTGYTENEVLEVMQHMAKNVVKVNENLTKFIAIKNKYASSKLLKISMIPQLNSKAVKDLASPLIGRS
Substitution | normalised enrichment score
LQLRRQDSFSEDS [L7D] | -0.403
LQLRGQLSFSEDS [R5G] | 0.0483
LQLRRQLSKSEDS [F9K] | 0.471
LWLRRQLSFSEDS [Q2W] | 1.24
LVLRRQLSFSEDS [Q2V] | 2.89
LQLRRQLSFSEES [D12E] | 4.05
LQLRIQLSFSEDS [R5I] | 0.411
LQVRRQLSFSEDS [L3V] | 3.82
LQCRRQLSFSEDS [L3C] | 2.84
LQLRRQLGFSEDS [S8G] | 0.328
LQPRRQLSFSEDS [L3P] | 1.28
LQLRRQHSFSEDS [L7H] | 0.31
LQLRRQLSFSIDS [E11I] | 0.822
LQLRRQLSTSEDS [F9T] | -0.105

Repeated from above (series 3):
Strand | E-score
CCAAAGCA | -0.00358
AGTTCAGC | -0.211
GAAGCCCA | -0.193
GGGAGTTA | 0.0511
ATCACGTC | 0.00437
GGATTACC | -0.171
CCATGCAA | 0.13
AATCGGTA | 0.157
CTCTCGGC | -0.311
CCCATCCC | -0.225
